Published values of several laboratories.
± marks the error that the study gave.

`CC(C)N(CCC1CC2CN(C(=O)Nc3ccc(C(C)(C)C)cc3)CC2C1)C[C@H]1O[C@@H](n2cnc3c(N)ncnc32)[C@H](O)[C@@H]1O` (stereo partly shown) — result for “H3K79me2 level ratio”: 3.12 (human DOT1L R231Q; inhibitor, western blot, refers to: H3K79me2 over histone H3; H460 DOT1L R231Q; concentration not given; baseline: cpd over SGC0946).
`O=C(O)C1=CC=CC(O)C1O` (stereo not shown) gave an EC50 of 1500 nM (rhodopsin wild type-Rluc fusion; reporter gene; HEK293; 24 h).
`O=C(/C=C/c1ccc2c(=O)n(CCCl)cnc2c1)NO` has an IC50 of 113 nM (histone deacetylase; enzyme activity, inhibitor; HeLa nuclear extract).
With `CCC(C)(O)C(O)C(=O)O` (stereo not shown) the EC50 was 590 nM (rhodopsin wild type-Rluc fusion; reporter gene; HEK293; 24 h).
`O=Cc1ccc(O)cc1` — result for “lowest inhibitory concentration”: at least 1 µM (UGT (rat); 4-MU glucuronidation, inhibitor; rat kidney microsomes).
`OC[C@H]1O[C@@H](Oc2cc3c(O)cc(O)cc3[o+]c2-c2cc(O)c(O)c(O)c2)[C@H](O)[C@@H](O)[C@@H]1O.[Cl-]` has a CD value of over 20 µM (NAD(P)H quinone oxidoreductase, mouse; enzyme induction, inducer; Hepa-1c1c7; concentration doubling activity).
Under “H3K79me2 level ratio”, `CC(C)(C)C(=O)Nc1ccc2[nH]c(CN3CCC(N(CCC(=O)NCC4CCCO4)C[C@H]4O[C@@H](n5cnc6c(N)ncnc65)[C@H](O)[C@@H]4O)CC3)nc2c1` (stereo partly shown) is recorded as 1.3 (human DOT1L R231Q; inhibitor, western blot, refers to: H3K79me2 over histone H3; H460 DOT1L R231Q; concentration not given; baseline: cpd over SGC0946).
For `CC1=C\[C@@H](O)C[C@@H](O)Cc2nc(co2)C(=O)N[C@H](C)C(=O)O[C@H](C(C)C)[C@H](C)/C=C/C(=O)NC\C=C\1`, “fold reduction of dipeptide formation” read about 5 fold (Escherichia coli 70S ribosome; fMet-Phe dipeptide formation; 5 µM, pH 7.5, 37 °C).
The steady-state inhibition of `Cn1c(=O)oc2ccc(-c3ccc(C[C@@H](C#N)NC(=O)[C@@H]4CNCCCO4)cc3)cc21` is reported as 30% (neutrophil elastase; enzyme activity, inhibitor; human, whole blood; oral, 10 mg once daily, together with: zymosan).
With `CCCn1cnc2c(NCc3ccc(C)s3)nc(N[C@H](CC)CO)nc21` the EC50 was 7140 nM (Cav2.1 calcium channel; tail current integral, whole-cell patch clamp; HEK293 transfected with Cav2.1).
With `CC(C)(N)C(=O)O` the Km was 2000 µM (system A amino acid transporter, mouse; Na+-dependent uptake, substrate; Ehrlich ascites cells; 1 min, pH 7.4, together with: 107 mEq/L Na+).
`CC(C)(C)C(=O)Nc1ccc(NC(=O)N2CC3CC(N(CC(=O)N4CCSCC4)C[C@H]4O[C@@H](n5cnc6c(N)ncnc65)[C@H](O)[C@@H]4O)CC3C2)cc1` (stereo partly shown): “H3K79me2 level ratio” 1.21 (human DOT1L R231Q; inhibitor, western blot, refers to: H3K79me2 over histone H3; H460 DOT1L R231Q; concentration not given; baseline: cpd over SGC0946).
`O=C(O)c1cc(O)c(O)c(O)c1` gave a CD value of over 20 µM (NAD(P)H quinone oxidoreductase, mouse; enzyme induction, inducer; Hepa-1c1c7; concentration doubling activity).
`GKKVITAFVEGLK` — result for “relative concentration for IL-2 production”: 10 to 100 fold (3.L2 T cell receptor; agonist; peptide, 3.L2.12 T cell hybridoma; concentration not given; baseline: over Hb(64-76) peptide).
With `CCn1cnc2c(N)ncnc21` the EC50 was 11000 nM (rhodopsin wild type-Rluc fusion; reporter gene; HEK293; 24 h).
For `O=c1ccc2ccccc2o1`, the Hill coefficient was 1.16 ± 0.28 (CYP2A6 human; 7-hydroxylation, substrate; human liver microsomes; CYP2A6 added 216 pmol/mg, ratio 0.5).
`GIGKFLHSAKKFGKAFVGEIMNS-NH2 (C-amide)`: “CD slope at 272 nm” -0.066 ± 0.024 (15 bp duplex DNA; DNA binding, near-UV circular dichroism; peptide; room temperature, together with: 1.66 µM DNA, peptide titrated).
`COC(=O)CC(O)(CC(=O)OC)C(=O)O` gave a CD value of over 20 µM (NAD(P)H quinone oxidoreductase, mouse; enzyme induction, inducer; Hepa-1c1c7; concentration doubling activity).
`NCCOB(c1ccccc1)c1ccccc1` has an EC50 ratio of about 21 fold (TRPV3 D641N (mouse); agonist, Fluo-4 calcium; HEK293 transfected; baseline: pH 7.4 over pH 5.6).
`C[C@H](NC(=O)[C@H](CC(N)=O)NC(=O)[C@H](Cc1ccc(O)cc1)NC(=O)[C@H](CCC(=O)O)NC(=O)[C@H](CS)NC(=O)[C@H](CC(=O)O)NC(=O)[C@H](C)N1C/C=C/CCC(=O)N[C@@H]([C@@H](C)O)C(=O)N[C@@H](C)C1=O)C(=O)N[C@@H](CCCNC(=N)N)C(N)=O` has an inhibition of 45 ± 8% (HIF-1α; VEGF transcription, qRT-PCR, refers to: VEGF mRNA; HeLa; 1 µM, 12 h, together with: deferoxamine-mimicked hypoxia).
`CCN1CCN(CCCN(C[C@H]2O[C@@H](n3cnc4c(N)ncnc43)[C@H](O)[C@@H]2O)C2CCN(Cc3nc4cc(NC(=O)C(C)(C)C)ccc4[nH]3)CC2)CC1` — result for “H3K79me2 level ratio”: 0.944 (human DOT1L R231Q; inhibitor, western blot, refers to: H3K79me2 over histone H3; H460 DOT1L R231Q; concentration not given; baseline: cpd over SGC0946).
`CC1=C(/C=C/C(C)=C/C=C/C(C)=C/C(=O)O)C(C)(C)CCC1` has an EC50 of under 10000 nM (thyroid hormone receptor, rat; reporter gene, agonist, luciferase reporter, qHTS; GH3.TRE-Luc).
`ARYLH-OH (C-free acid)`: “conversion to cyclic peptide” 24% (cytochrome P450 Blt (Micromonospora sp. MW-13); substrate, LC-MS; peptide; overnight, 30 °C, P450 0.5 µM, together with: NADH 2 mM).
`human clusterin`: “average size of aggregated species” 780 ± 60 nm (amyloid beta 1-40; TIRF microscopy; 2 µM, 24 h, together with: 2 µM amyloid beta 1-40, added at 4 h).
`CN(C)c1cccc2c(S(=O)(=O)N[C@H](C(=O)Nc3ccc(C(=O)NO)cc3)c3ccccc3)cccc12` has an IC50 of 9.7 ± 0.3 nM (HDAC (HeLa nuclear extract); enzyme activity, inhibitor).
`EPEPRLWVVPGALPQV` — result for “concentration for maximal response”: 10 nM (GPR15 human; intracellular calcium, agonist, Fluo-4 fluorescence; peptide, CHO transfected with GPR15).
`N#Cc1c(-c2ccc(F)cc2)c(-c2ccc(F)cc2)nn(Cc2nn[nH]n2)c1=O` — result for “minimum effective concentration”: 2 µM (tubulin (bovine); aberrant polymer assembly, turbidity; 37 °C).
For `COC(=O)c1cc(O)c(O)c(O)c1`, the CD value was 14.1 ± 2.3 µM (NAD(P)H quinone oxidoreductase, mouse; enzyme induction, inducer; Hepa-1c1c7; concentration doubling activity).
The CFTR activity of `CC(C)(C)c1cc(C(C)(C)C)c(NC(=O)c2c[nH]c3ccccc3c2=O)cc1O` is reported as 68.1 ± 2.1% (CFTR S1251N human; short-circuit current, potentiator; CFBE; 14.44 µM, together with: forskolin 20 µM; baseline: PKA-activated wild type).
`CC(C)(C)C(=O)Nc1ccc2nc(CN3CCC(N(CC(=O)N4CCOCC4)C[C@H]4O[C@@H](n5cnc6c(N)ncnc65)[C@H](O)[C@@H]4O)CC3)[nH]c2c1` — result for “H3K79me2 level ratio”: 1.14 (human DOT1L R231Q; inhibitor, western blot, refers to: H3K79me2 over histone H3; H460 DOT1L R231Q; concentration not given; baseline: cpd over SGC0946).
`GRKKRRQRRRPPQGGVHPMKSRLRRT` gave an inhibition of 94% (AT1 receptor, human; phosphoinositide turnover, antagonist; peptide, HEK293, AT1 transfected; 10 µM, 30 min, together with: angiotensin II 10 nM).
`CC(C)(C)C(=O)Nc1ccc2[nH]c(CN3CCC(N(CCCN4CCC(O)CC4)C[C@H]4O[C@@H](n5cnc6c(N)ncnc65)[C@H](O)[C@@H]4O)CC3)nc2c1` — result for “H3K79me2 level ratio”: 0.591 (human DOT1L R231Q; inhibitor, western blot, refers to: H3K79me2 over histone H3; H460 DOT1L R231Q; concentration not given; baseline: cpd over SGC0946).
Under “Pearson correlation coefficient”, `CN1CC[C@H](c2c(O)cc(O)c3c(=O)cc(-c4ccccc4Cl)oc23)[C@H](O)C1` is recorded as 0.22 (CHERP and Ser2-phosphorylated RNA polymerase II, human; colocalization, immunofluorescence; HEK293 transfected with HA-CHERP; 2 µM, 3 h).
With `C[C@H](N)C(=O)O` the Km was 400 µM (system A amino acid transporter, mouse; Na+-dependent uptake, substrate; Ehrlich ascites cells; 1 min, pH 7.4, together with: 107 mEq/L Na+).
`O=C(NO)c1ccc(NC(=O)[C@@H](NS(=O)(=O)c2ccc3ccccc3c2)c2ccccc2)cc1` has an IC50 of 23.5 ± 1.7 nM (HDAC (HeLa nuclear extract); enzyme activity, inhibitor).
Under “CD slope at 272 nm”, `GWGSFFKKAAHVGKHVGKAALTHYL-NH2 (C-amide)` is recorded as -0.121 ± 0.003 (15 bp duplex DNA; DNA binding, near-UV circular dichroism; peptide; room temperature, together with: 1.66 µM DNA, peptide titrated).
Under “conversion to cyclic peptide”, `MNYLH-OH` is recorded as 39% (cytochrome P450 Blt (Micromonospora sp. MW-13); substrate, LC-MS; peptide; overnight, 30 °C, P450 0.5 µM, together with: NADH 2 mM).
Under “lowest inhibitory concentration”, `COc1cc(C=O)cc(OC)c1O` is recorded as at least 0.01 µM (UGT (rat); p-NP glucuronidation, inhibitor; rat liver microsomes).
`CCCN(CCC)S(=O)(=O)c1ccc(C(=O)O)cc1` — result for “6-CF AUC(0-60 min)”: 164 ± 10.4 µg·min/mL (rat renal Oats; rat, plasma; iv, 100 mg/kg, together with: 6-CF 1 mg/kg iv).
`O=c1ccn([C@@H]2O[C@H](COP(=O)(O)OP(=O)(O)OP(=O)(O)O)[C@@H](O)[C@H]2O)c(=O)[nH]1` has a potency shift of about 1000 fold (P2Y2 receptor (human) RGE mutant; ERK1/2 phosphorylation, agonist; 1321N1 transfected; 5 min, 37 °C; baseline: RGE mutant over wild type).
